{"data": "Published values from different studies", "note": "Each line is one published result; not all experiments were run side by side. “And” joins repeats or separate records; there may be more than shown. ± marks the error that the study gave."}
{"SMILES": "CC1(C)CC[C@]2(C(=O)O)CC[C@]3(C)C(=CC[C@@H]4[C@@]5(C)C[C@@H](O)[C@H](OC(=O)/C=C/c6ccc(O)cc6)C(C)(C)[C@@H]5CC[C@]43C)[C@@H]2C1 (relative stereo)", "system": "C57BL/6 mice, plasma", "conditions": "intraperitoneal, 85 µmol/kg single dose", "AUC(0-t)": "89.7 µM·h"}
{"SMILES": "CCN1CCN(Cc2ccc(NC(=O)c3ccc(C)c(NC(=O)c4cncc(-c5cccs5)c4)c3)cc2C(F)(F)F)CC1", "system": "C57BL/6 mice, epithelial lining fluid", "conditions": "intraperitoneal, 15 mg/kg", "AUC(0-t)": "4640 ng·h/mL"}
{"SMILES": "CN1CCC[C@H](CN2c3ccccc3Sc3ccccc32)C1.Cl", "system": "ICR mice, fasted female, eye", "conditions": "oral, 16 mg/kg", "AUC(0-t)": "1320 ng·h/mL"}
{"SMILES": "CCOc1ccc(N(C)S(=O)(=O)c2cc(Cl)sc2C(=O)Nc2cc(Cl)cc(C(=O)O)c2)cc1OC", "system": "male C57BL/6 mice, brain", "conditions": "intraperitoneal, 10 mg/kg", "AUC(0-t)": "22.8 ng·h/g"}
{"SMILES": "CCN(c1cc(-c2ccc(CN3CCOCC3)cc2)cc(C(=O)NCc2c(C)cc(C)[nH]c2=O)c1C)C1CCOCC1", "system": "female CB17 SCID mice, HT-1376 xenograft, plasma", "conditions": "75 mg/kg, day 1", "AUC(0-t)": "23200 ng·h/mL"}
{"SMILES": "O=[N+]([O-])c1ccc(-c2ccc(O)cc2)c2cccnc12", "system": "ICR mice male, plasma", "conditions": "intravenous, 1 mg/kg", "AUC(0-t)": "140 ng·h/mL"}
{"SMILES": "Cc1ncccc1-c1cnc(NCc2c(F)ccc3c2CCO3)n2cnnc12", "system": "female CB17 SCID mice, HT-1376 xenograft, plasma", "conditions": "75 mg/kg, day 1", "AUC(0-t)": "13100 ng·h/mL"}
{"SMILES": "CCc1nc(C(N)=O)c(Nc2ccc(N3CCC(N4CCN(C)CC4)CC3)c(OC)c2)nc1NC1CCOCC1", "system": "female FVB mice, OCT1/2 knockout, plasma", "conditions": "oral, 10 mg/kg, single dose", "AUC(0-t)": "6300 ± 611 ng·h/mL"}
{"SMILES": "Cl.N=C(CC(O)c1cc2c(F)cc(F)cc2c2cc(C(F)(F)F)ccc12)Nc1ccc(Br)cc1 (stereo not shown)", "system": "Plasmodium berghei-infected mice, whole blood dried spots", "conditions": "oral, 50 mg/kg, 0 to 24 h", "AUC(0-t)": "49000 ± 1770 ng·h/mL"}
{"SMILES": "Cc1c(C(=O)O)ccc2c3n(nc12)[C@@H]1[C@H](C3)N(CC2CC2)[C@@]2(C(=O)Nc3cc(Cl)ccc32)[C@H]1c1cccc(Cl)c1F", "system": "female BALB/c nude mice, SJSA-1 xenograft, plasma", "conditions": "oral, 1 mg/kg twice daily", "AUC(0-t)": "31.2 µM·h and 20.1 µM·h and 23.3 µM·h and 21.2 µM·h"}
{"note": "Some of these lines once more:"}
{"SMILES": "CC1(C)CC[C@]2(C(=O)O)CC[C@]3(C)C(=CC[C@@H]4[C@@]5(C)C[C@@H](O)[C@H](OC(=O)/C=C/c6ccc(O)cc6)C(C)(C)[C@@H]5CC[C@]43C)[C@@H]2C1 (relative stereo)", "system": "C57BL/6 mice, plasma", "conditions": "intraperitoneal, 85 µmol/kg single dose", "AUC(0-t)": "89.7 µM·h"}
